Assay results collected from several papers.
Several values in a cell are separate wells, animals, samples, runs or records. Numbers after ± are the reported error.
ESR1: Estrogen receptor (ESR1, Homo sapiens, UniProt P03372)
Moesin with CD44: Moesin, with CD44 (Homo sapiens, UniProt P26038)
IDO1: Indoleamine 2,3-dioxygenase 1 (IDO1, Homo sapiens, UniProt P14902)

By UniProt entry, the sequences of proteins in these tests, tags left out. Where a name states a change or a piece, a line headed by the entry shows the natural chain unless it says otherwise. Residues count along the entry.
UniProt P26038, whole entry, looked up: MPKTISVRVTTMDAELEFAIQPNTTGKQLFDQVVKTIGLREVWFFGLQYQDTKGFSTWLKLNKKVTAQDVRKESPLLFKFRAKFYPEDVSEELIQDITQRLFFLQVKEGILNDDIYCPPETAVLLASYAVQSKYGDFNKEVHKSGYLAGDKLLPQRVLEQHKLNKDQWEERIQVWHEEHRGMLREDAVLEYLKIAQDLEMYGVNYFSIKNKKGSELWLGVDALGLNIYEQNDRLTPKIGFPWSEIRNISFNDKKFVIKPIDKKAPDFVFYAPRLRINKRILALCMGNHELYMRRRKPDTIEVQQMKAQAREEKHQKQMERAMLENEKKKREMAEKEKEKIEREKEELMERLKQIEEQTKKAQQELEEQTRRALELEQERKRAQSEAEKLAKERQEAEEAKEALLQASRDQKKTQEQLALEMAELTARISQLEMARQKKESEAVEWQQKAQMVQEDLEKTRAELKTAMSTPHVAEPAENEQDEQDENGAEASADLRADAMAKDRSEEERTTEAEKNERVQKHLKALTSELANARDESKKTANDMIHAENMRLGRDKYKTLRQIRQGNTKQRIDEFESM
UniProt A4HTR0, 1-443: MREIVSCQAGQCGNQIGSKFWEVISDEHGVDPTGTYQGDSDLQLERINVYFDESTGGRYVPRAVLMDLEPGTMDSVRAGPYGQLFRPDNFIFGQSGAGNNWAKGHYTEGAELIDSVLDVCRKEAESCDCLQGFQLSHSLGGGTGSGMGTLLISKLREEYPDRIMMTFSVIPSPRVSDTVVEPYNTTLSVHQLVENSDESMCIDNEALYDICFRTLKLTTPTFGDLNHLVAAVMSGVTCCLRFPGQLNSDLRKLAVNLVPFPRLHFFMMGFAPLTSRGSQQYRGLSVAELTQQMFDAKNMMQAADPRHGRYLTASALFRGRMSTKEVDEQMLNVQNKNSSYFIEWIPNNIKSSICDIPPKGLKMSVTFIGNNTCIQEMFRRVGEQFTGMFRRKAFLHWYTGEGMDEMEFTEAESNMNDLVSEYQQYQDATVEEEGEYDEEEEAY
UniProt P05067, 672-713 limits assumed: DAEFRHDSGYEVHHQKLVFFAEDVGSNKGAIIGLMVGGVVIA
UniProt Q96RJ0, whole entry: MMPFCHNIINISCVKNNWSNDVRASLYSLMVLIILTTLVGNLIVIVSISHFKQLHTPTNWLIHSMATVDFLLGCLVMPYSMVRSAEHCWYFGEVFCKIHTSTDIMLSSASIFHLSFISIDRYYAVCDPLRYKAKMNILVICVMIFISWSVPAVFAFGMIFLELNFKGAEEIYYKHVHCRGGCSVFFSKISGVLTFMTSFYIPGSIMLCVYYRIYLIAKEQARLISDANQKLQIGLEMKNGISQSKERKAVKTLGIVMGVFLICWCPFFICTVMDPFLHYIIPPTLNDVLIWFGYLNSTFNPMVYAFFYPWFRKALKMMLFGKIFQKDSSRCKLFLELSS
UniProt P54764, 29-209 limits assumed: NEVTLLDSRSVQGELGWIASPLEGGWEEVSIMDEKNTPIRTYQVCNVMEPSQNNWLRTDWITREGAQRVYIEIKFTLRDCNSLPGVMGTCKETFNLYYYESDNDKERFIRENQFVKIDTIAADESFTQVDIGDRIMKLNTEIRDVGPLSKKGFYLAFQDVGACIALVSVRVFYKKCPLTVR
UniProt P29466, whole entry, looked up: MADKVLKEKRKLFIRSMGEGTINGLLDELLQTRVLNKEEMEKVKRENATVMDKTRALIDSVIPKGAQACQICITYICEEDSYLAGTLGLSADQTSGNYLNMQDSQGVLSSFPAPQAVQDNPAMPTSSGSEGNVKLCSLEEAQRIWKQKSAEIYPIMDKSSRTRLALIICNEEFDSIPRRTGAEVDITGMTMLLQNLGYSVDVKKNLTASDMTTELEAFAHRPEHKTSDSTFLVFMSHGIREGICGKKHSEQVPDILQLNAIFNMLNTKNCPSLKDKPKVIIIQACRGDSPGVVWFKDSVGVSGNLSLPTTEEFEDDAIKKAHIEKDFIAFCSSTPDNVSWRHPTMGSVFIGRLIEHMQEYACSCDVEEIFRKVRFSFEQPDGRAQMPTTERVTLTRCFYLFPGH
UniProt O88693, whole entry: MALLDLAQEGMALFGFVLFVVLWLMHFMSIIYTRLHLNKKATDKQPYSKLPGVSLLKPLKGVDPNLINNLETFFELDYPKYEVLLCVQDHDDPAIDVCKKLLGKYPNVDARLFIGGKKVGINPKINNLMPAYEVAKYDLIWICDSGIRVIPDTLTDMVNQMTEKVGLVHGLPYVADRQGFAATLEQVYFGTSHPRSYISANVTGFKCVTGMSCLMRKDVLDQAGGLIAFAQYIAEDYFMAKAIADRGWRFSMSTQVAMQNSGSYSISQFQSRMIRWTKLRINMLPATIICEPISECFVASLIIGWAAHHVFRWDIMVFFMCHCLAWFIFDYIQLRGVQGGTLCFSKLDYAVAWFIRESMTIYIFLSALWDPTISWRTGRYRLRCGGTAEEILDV
UniProt O00167, whole entry: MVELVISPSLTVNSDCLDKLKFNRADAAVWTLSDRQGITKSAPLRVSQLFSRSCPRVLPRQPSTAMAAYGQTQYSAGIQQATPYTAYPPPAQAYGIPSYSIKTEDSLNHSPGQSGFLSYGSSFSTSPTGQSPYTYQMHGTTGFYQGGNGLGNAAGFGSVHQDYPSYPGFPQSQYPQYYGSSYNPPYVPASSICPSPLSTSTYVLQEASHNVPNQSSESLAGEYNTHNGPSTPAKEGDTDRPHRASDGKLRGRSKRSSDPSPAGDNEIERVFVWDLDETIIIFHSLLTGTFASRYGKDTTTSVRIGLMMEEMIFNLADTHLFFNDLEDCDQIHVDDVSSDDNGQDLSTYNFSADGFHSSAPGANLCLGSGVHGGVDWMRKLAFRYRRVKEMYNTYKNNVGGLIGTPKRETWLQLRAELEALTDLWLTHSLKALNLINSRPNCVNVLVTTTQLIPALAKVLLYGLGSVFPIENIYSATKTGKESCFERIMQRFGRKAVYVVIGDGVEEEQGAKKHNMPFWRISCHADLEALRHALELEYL
UniProt Q9NV35, whole entry: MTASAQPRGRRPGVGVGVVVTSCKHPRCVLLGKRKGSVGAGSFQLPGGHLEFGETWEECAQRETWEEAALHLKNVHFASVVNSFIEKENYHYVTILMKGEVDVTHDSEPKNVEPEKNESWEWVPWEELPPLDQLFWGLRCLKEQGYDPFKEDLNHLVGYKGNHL
UniProt Q5S007, whole entry: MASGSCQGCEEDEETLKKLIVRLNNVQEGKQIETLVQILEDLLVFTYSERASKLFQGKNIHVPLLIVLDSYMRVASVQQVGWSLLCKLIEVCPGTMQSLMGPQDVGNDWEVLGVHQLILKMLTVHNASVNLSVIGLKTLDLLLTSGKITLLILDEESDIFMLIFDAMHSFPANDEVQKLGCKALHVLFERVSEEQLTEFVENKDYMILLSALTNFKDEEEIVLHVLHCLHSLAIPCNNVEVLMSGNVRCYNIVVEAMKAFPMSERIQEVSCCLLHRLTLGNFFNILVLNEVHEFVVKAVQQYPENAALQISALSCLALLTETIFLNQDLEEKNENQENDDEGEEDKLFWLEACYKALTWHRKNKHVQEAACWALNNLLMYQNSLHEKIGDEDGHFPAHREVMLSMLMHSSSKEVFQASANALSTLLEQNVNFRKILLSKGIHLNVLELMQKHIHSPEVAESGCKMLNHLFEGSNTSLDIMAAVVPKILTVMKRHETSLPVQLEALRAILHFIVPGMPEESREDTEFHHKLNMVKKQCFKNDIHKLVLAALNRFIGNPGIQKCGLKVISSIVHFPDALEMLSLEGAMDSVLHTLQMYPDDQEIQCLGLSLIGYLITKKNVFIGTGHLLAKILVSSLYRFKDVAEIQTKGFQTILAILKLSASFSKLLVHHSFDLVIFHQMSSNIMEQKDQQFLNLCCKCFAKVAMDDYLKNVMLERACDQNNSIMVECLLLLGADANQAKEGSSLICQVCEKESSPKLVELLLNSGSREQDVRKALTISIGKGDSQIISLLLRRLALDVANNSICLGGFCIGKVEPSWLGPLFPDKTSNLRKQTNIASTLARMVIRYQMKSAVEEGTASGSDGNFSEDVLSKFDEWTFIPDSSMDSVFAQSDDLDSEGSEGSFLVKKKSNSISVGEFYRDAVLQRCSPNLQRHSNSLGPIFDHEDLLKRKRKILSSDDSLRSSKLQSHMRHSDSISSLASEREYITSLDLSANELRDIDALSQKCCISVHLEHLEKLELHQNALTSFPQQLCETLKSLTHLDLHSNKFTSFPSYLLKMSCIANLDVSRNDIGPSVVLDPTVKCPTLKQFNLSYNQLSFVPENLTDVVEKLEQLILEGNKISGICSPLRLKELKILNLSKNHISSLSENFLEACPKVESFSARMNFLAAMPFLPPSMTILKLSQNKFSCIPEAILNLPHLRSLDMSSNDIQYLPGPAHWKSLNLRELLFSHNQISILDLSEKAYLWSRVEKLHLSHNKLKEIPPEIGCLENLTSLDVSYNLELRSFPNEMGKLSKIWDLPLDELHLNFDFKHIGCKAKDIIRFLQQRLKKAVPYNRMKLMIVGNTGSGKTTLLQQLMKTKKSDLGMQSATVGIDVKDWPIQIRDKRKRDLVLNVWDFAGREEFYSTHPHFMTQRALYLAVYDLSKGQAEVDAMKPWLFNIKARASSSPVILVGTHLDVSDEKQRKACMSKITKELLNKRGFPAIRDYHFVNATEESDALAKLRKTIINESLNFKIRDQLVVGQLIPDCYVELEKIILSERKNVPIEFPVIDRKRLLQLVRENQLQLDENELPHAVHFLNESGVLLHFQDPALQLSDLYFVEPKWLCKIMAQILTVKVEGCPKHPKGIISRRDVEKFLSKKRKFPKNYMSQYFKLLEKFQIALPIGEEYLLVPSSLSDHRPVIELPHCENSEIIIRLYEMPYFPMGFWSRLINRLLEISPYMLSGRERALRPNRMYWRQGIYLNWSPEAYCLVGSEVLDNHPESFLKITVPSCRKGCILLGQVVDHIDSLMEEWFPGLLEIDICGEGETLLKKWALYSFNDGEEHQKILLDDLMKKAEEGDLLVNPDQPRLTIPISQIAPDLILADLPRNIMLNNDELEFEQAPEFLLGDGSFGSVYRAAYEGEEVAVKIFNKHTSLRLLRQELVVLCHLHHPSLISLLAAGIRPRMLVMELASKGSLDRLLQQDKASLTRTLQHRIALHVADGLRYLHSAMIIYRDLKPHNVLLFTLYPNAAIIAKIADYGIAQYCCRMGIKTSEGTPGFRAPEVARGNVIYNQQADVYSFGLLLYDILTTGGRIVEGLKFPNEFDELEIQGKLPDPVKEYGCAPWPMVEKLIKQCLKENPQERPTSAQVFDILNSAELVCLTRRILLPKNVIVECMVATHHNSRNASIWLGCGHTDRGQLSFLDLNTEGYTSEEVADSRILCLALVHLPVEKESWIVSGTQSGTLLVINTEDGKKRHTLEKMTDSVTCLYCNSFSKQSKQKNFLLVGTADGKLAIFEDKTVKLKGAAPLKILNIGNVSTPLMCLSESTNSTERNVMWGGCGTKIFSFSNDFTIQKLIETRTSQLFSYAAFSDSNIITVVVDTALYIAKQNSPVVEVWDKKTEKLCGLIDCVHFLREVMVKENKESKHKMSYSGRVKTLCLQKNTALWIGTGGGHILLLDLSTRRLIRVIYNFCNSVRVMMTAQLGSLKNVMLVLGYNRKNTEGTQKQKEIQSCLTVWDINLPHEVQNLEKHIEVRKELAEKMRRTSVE
UniProt Q99572, whole entry: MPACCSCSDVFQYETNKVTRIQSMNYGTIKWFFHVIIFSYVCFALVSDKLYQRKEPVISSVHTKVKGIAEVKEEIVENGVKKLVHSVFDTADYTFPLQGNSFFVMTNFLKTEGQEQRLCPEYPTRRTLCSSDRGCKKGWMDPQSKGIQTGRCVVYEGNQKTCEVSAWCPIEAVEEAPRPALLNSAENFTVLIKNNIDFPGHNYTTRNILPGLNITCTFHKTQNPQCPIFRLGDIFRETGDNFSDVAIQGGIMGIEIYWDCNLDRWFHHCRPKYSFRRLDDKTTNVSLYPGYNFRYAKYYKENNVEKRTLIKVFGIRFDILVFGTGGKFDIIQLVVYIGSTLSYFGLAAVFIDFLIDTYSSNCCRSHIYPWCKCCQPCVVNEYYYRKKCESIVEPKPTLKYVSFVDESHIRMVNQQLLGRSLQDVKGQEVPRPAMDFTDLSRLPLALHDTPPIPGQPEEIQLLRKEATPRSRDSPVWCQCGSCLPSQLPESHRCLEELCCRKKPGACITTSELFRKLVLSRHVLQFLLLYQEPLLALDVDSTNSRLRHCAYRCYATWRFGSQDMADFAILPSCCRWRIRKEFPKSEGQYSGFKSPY
UniProt Q8TDS5, whole entry: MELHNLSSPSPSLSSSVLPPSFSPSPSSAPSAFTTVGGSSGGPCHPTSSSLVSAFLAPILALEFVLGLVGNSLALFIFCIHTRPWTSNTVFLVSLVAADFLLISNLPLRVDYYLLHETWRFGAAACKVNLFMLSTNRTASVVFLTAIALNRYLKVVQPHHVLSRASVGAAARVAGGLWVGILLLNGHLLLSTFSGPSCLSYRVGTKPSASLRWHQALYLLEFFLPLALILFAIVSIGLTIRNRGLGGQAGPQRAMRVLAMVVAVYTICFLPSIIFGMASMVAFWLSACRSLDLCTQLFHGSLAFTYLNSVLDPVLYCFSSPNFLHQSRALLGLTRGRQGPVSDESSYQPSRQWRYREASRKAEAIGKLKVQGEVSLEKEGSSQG

Compound | target | test | test system | setting | IC50
CC(=NN=C1NC(=O)C(CC(=O)Nc2ccc(C(=O)O)cc2)S1)c1cccs1 (centres unmarked) | Protein phosphatase 3 catalytic subunit alpha (PPP3CA, Homo sapiens, UniProt Q08209) | phosphatase activity, inhibitor, malachite green |  | added: phosphopeptide substrate at Km | 8.56 µM and 8.6 µM
CCCCCN(C)C(=O)Oc1ccccc1C=C1Cc2cc(OC)c(OC)cc2C1=O | Cocaine esterase (CES2, Homo sapiens, UniProt O00748) | inhibitor |  | 3 min preincubation, added: fluorescein diacetate | 0.0257 ± 0.00268 µM
COC(=O)[C@@H]1C(C=Nc2cncnc2N)=Cc2cc3c(cc2[C@H]1c1cc(OC)c(OC)c(OC)c1)OCO3 | Tubulin alpha/beta heterodimer (Leishmania infantum, UniProt A0A381MCS3+A4HTR0) | tubulin polymerization, inhibitor |  | 37 °C, added: tubulin 1.2 mg/mL | 1.64 µM and 1.6 µM
COCCCn1nc(-c2ccc(CC(=O)Nc3cc(C(C)(C)C)on3)cc2)c2c(N)ncnc21 | High affinity nerve growth factor receptor (NTRK1, Homo sapiens, UniProt P04629) | inhibitor |  |  | 0.198 ± 0.067 µM
O=C(O)c1cc(C(=O)N[C@@H](Cc2ccc(O)cc2)C(=O)O)cc([C@H]2CCN[C@@H]2C(=O)O)c1 | kainate receptor (rat) | binding, radioligand binding | rat cortical synaptosomes | added: [3H]kainate | 10 to 50 µM
CC(C)NC(=O)CSc1nc2ccc(NC(=O)CSc3ccc(Cl)cc3)cc2s1 | ESR1 | reporter gene, antagonist | HEC-1 transfected ERα luciferase reporter |  | 20 to 50 µM
COCOc1ccc(/C=C/C(=O)C(CCC(=O)OC)C(=O)/C=C/c2ccc(OCOC)c(OC(F)(F)F)c2)cc1OC(F)(F)F | Amyloid-beta precursor protein, Aβ aggregates (APP, Homo sapiens, UniProt P05067) | binding, thioflavin T competition |  |  | 4.71 µM
Cc1ncsc1-c1ccc(CNC(=O)[C@@H]2C[C@@H](O)CN2C(=O)c2cccc(Br)c2)cc1 | von Hippel-Lindau disease tumor suppressor, with elongin B, C (VHL, Homo sapiens, UniProt P40337) | binding, fluorescence polarization |  | 1% DMSO, added: FAM-HIF1α peptide tracer | 26.8 ± 1.8 µM
O=C(Nc1ccc(-c2nc3ccccc3[nH]2)cc1)c1ccccc1Br | Moesin with CD44 | MSN-CD44 interaction, inhibitor, TR-FRET |  | added: CD44 | > 100 µM
CCC(NC(=O)C(CC(C)C)NC(=O)Cc1ccncc1)C(=O)C(=O)NCc1cc(OC)cc(OC)c1 (centres unmarked) | Calpain-2 catalytic subunit (Capn2, Mus musculus, UniProt O08529) | enzyme activity, inhibitor | pons-cerebellum membrane fractions | added: calcium 2 mM | 0.498 µM
O=C(Nc1ccc(-c2nc3ccccc3s2)cc1)C1CCOCC1 | Tyrosine-protein kinase SYK, with FCER1G (SYK, Homo sapiens, UniProt P43405) | protein binding, inhibitor, TR-FRET |  |  | > 100 µM
COc1ccc(-c2cc(=O)c3c(OC)cc(OC)cc3o2)cc1 | Pde5a (Mus musculus, UniProt Q8CG03) | enzyme activity, inhibitor |  |  | 37.4 ± 1.15 µM
Cc1cc(C(F)(F)F)c(C#N)c(SCC(=O)Nc2ccccc2)n1 | Trace amine-associated receptor 1 (TAAR1, Homo sapiens, UniProt Q96RJ0) |  |  |  | > 10 µM
CC(C)=CCC/C(C)=C/CC/C(C)=C/CC/C(C)=C/CC1=C(C)C(=O)c2ccccc2C1=O | Protein-glutamine gamma-glutamyltransferase (TGM2, Homo sapiens, UniProt P21980) | enzyme activity, inhibitor, biotin-pentylamine incorporation |  | 10 mM DTT | > 50 µM
CN1CCN(Cc2ccc(NC(=O)c3cncc(C#Cc4c(N)ncc5ccc(F)cc45)c3)cc2C(F)(F)F)CC1 | Kinesin-1 heavy chain/ Tyrosine-protein kinase receptor RET (RET/KIF5B, Homo sapiens, UniProt P07949+P33176) | cell viability, inhibitor, CellTiter-Glo | Ba/F3 KIF5B-RET wild type |  | 0.00425 ± 0.00025 µM
COc1ccc2[nH]cc(/C=C/c3ccc(OS(C)(=O)=O)cc3)c2c1 | IDO1 | enzyme activity, inhibitor |  |  | > 100 µM
O=C(CC1Cc2ccccc2C1)N[C@H](CN1CC[C@@H](F)C1)[C@H](O)c1ccc2c(c1)OCCO2 | Ceramide glucosyltransferase (UGCG, Canis lupus familiaris, UniProt A0A8I3MXG6) | inhibitor, measured: glucosylceramide | MDCK | 24 h | 0.0066 µM
COc1cc(Cl)ccc1NC(=O)C(C(F)(F)F)C(F)(F)F | Chymotrypsinogen A (Bos taurus, UniProt P00766) | inhibitor, fluorogenic peptide substrate |  |  | 2.4 µM

Compound | target | test | test system | setting | IC50
CCCCN(CCc1ccc(Cl)c(Cl)c1)C[C@H](O)COc1ccc(NS(C)(=O)=O)cc1 | Glutamate NMDA receptor; Grin1/Grin2b (Grin1/Grin2b, Rattus norvegicus, UniProt P35439+Q00960) |  |  | pH 7.35 | 2.2 µM
NCCC(=O)N[C@@H](Cc1c[nH]c2ccc(O)cc12)C(=O)N[C@@H](Cc1ccc(Cl)cc1)C(=O)N[C@@H](Cc1ccncc1)C(=O)N[C@H](Cc1c[nH]c2ccccc12)C(N)=O | Ephrin type-A receptor 4 (EPHA4, Homo sapiens, UniProt P54764) | binding, fluorescence polarization |  | added: FITC-KYL peptide 5 µM | 3.77 ± 0.5 µM
Clc1ccc(C2(c3ccc(-c4ncnc5[nH]cnc45)cc3)CCNCC2)cc1 | RAC-alpha serine/threonine-protein kinase (AKT1, Homo sapiens, UniProt P31749) | kinase activity, inhibitor, radiometric HotSpot |  | added: ATP 10 µM | 0.038 µM
COc1ccc2[nH]cc(/C=C/c3ccncc3)c2c1 | IDO1 | enzyme activity, inhibitor |  |  | > 50 µM
O=C(CCl)N1CCN(c2cc(N3CCCC3)nc(N3CCCC3)n2)CC1 | Caspase-1 (CASP1, Homo sapiens, UniProt P29466) | inhibitor |  | 15 min preincubation | > 0.5 µM
OC[C@H]1[C@@H](O)[C@H](O)[C@@H](O)CN1CCCCCOCCc1ccsc1 | Ceramide glucosyltransferase (Ugcg, Mus musculus, UniProt O88693) | inhibitor, C6-NBD-ceramide in situ | RAW264.7 |  | 0.12 µM
O=C(N/N=C/c1ccc(Sc2ncccn2)o1)c1cccc(OC(F)(F)F)c1 | Protein phosphatase EYA2 (Homo sapiens, UniProt O00167) | tyrosine phosphatase activity, inhibitor |  |  | 3.39 µM
O=C(CCCn1c(=S)[nH]c2ccccc2c1=O)N1CCN(c2ccc(Cl)c(Cl)c2)CC1 | ESR1 | reporter gene, antagonist | HEC-1 cells transfected with ERα | added: estradiol 1 nM | 5.5 µM
O=C(Nc1ccc2[nH]ccc2c1)N1CCN(S(=O)(=O)c2ccc3[nH]c(=O)oc3c2)CC1 | Nucleotide triphosphate diphosphatase NUDT15 (NUDT15, Homo sapiens, UniProt Q9NV35) | enzyme activity, inhibitor, malachite green |  | added: dGTP | 3.5 µM
CCOc1cc(C(=O)N2CCC(N3CCN(C)CC3)CC2)ccc1Nc1ncc2c(n1)N(C(C)C)c1ccccc1C(=O)N2C | Leucine-rich repeat serine/threonine-protein kinase 2 (LRRK2, Homo sapiens, UniProt Q5S007) | kinase activity, Adapta |  |  | 0.114 ± 0.011 µM
O=C(Nc1ccccc1OS(=O)(=O)c1ccc(I)cc1)c1cnccn1 | P2X purinoceptor 7 (P2RX7, Homo sapiens, UniProt Q99572) | calcium mobilisation, antagonist | MCF7 transfected with target | added: Bz-ATP 100 µM | 1.9 ± 0.172 µM
O=C(Nc1ccc(-c2nc3ccccc3[nH]2)cc1)C1CCC1 | Moesin with CD44 | MSN-CD44 interaction, inhibitor, TR-FRET |  | added: CD44 | > 100 µM
CCC(=O)Nc1ccc(-c2csc(NC(=O)c3cccc(OC)c3)n2)cc1 | Scavenger receptor class B member 1 (Mus musculus, UniProt Q61009) | DiI-HDL uptake, inhibitor | mouse cells | added: DiI-HDL | 0.085 µM
COc1ccc(-c2nc(C(F)(F)F)nn2-c2ccc(OC)nc2)cc1 | Prostaglandin G/H synthase 2 (PTGS2, Homo sapiens, UniProt P35354) | PGE2 production, inhibitor, enzyme immunoassay | human whole blood |  | > 1 µM
COc1ccc2[nH]cc(/C=C/c3cccc([N+](=O)[O-])c3)c2c1 | Amyloid-beta precursor protein, amyloid-beta peptide (APP, Homo sapiens, UniProt P05067) | Aβ42 oligomerisation, ELISA |  |  | 7.5 µM
CCCCC[C@H](O)c1c(C(=O)C[C@@H](C)CC(=O)O)c2cc(Cl)ccc2n1C | Oxoeicosanoid receptor 1 (OXER1, Homo sapiens, UniProt Q8TDS5) | calcium mobilization, antagonist | human neutrophils | added: 5-oxo-ETE 10 nM | > 10 µM
CN1CC[C@H](c2c(O)cc(O)c3c(=O)cc(-c4ccccc4F)oc23)[C@H](O)C1 | Casein kinase II subunit alpha (CSNK2A1, Homo sapiens, UniProt P68400) |  |  | ATP at Km | > 10 µM

Some of these lines once more:
Compound | target | test | test system | setting | IC50
O=C(Nc1ccccc1OS(=O)(=O)c1ccc(I)cc1)c1cnccn1 | P2X purinoceptor 7 (P2RX7, Homo sapiens, UniProt Q99572) | calcium mobilisation, antagonist | MCF7 transfected with target | added: Bz-ATP 100 µM | 1.9 ± 0.172 µM
CC(=NN=C1NC(=O)C(CC(=O)Nc2ccc(C(=O)O)cc2)S1)c1cccs1 (centres unmarked) | Protein phosphatase 3 catalytic subunit alpha (PPP3CA, Homo sapiens, UniProt Q08209) | phosphatase activity, inhibitor, malachite green |  | added: phosphopeptide substrate at Km | 8.56 µM and 8.6 µM
CC(C)NC(=O)CSc1nc2ccc(NC(=O)CSc3ccc(Cl)cc3)cc2s1 | ESR1 | reporter gene, antagonist | HEC-1 transfected ERα luciferase reporter |  | 20 to 50 µM
O=C(Nc1ccc2[nH]ccc2c1)N1CCN(S(=O)(=O)c2ccc3[nH]c(=O)oc3c2)CC1 | Nucleotide triphosphate diphosphatase NUDT15 (NUDT15, Homo sapiens, UniProt Q9NV35) | enzyme activity, inhibitor, malachite green |  | added: dGTP | 3.5 µM
